Published values from different studies.
Numbered parts are unrelated; each lists some results of a single study.

Block 1 — technique: protein-binding microarray; molecule type: double-stranded DNA, one strand shown; matrix: in vitro; concentration: not given; direction: higher = stronger binding
Target: Protein C-ets-1 (ETS1, Homo sapiens, UniProt P14921, residues 1-441, full length assumed)
Notes: k-mer, scored over probes, only values ≥0.25
Residues (chain): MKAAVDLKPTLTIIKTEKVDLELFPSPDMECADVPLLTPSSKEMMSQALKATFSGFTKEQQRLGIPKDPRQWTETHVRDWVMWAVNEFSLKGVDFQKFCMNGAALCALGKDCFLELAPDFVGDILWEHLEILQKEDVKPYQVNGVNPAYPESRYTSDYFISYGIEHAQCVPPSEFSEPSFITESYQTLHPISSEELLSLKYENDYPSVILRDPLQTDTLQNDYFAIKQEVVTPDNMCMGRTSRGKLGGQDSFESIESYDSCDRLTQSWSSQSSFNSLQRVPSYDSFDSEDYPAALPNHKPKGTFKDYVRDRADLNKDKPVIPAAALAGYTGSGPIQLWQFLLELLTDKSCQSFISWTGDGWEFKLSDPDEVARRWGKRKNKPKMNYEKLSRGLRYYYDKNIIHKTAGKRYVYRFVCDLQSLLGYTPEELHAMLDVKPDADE
Oligonucleotide | E-score
CGGGGGGA | 0.266
GGATATGA | 0.415
AGACCGGG | 0.259
GCTTCCGA | 0.424
GCGGATGA | 0.391
GCTTCCTA | 0.34
CAATTTCC | 0.444
CCGATACA | 0.278
GATGTGGC | 0.302
AACGGATG | 0.461
TCCGGGAA | 0.409
CACGGATG | 0.406
AACCGGGA | 0.287
AGGATACC | 0.347
CTACCGGA | 0.443
CCCGGAAG | 0.487
CCATCCGG | 0.475
TCCAGGAA | 0.418
CCCCCCGG | 0.315
CTTCCCCC | 0.389
GTCGGAAA | 0.402
CGGGGAAA | 0.293
ATCCGCTA | 0.329

Block 2 — technique: universal PBM; molecule type: double-stranded DNA, one strand shown; matrix: in vitro; concentration: 600 nM; direction: higher = stronger binding
Target: Sal-like protein 4, full length isoform A (SALL4, Homo sapiens, UniProt Q9UJQ4, residues 1-1053)
UniProt Q9UJQ4, sequence (whole entry, looked up): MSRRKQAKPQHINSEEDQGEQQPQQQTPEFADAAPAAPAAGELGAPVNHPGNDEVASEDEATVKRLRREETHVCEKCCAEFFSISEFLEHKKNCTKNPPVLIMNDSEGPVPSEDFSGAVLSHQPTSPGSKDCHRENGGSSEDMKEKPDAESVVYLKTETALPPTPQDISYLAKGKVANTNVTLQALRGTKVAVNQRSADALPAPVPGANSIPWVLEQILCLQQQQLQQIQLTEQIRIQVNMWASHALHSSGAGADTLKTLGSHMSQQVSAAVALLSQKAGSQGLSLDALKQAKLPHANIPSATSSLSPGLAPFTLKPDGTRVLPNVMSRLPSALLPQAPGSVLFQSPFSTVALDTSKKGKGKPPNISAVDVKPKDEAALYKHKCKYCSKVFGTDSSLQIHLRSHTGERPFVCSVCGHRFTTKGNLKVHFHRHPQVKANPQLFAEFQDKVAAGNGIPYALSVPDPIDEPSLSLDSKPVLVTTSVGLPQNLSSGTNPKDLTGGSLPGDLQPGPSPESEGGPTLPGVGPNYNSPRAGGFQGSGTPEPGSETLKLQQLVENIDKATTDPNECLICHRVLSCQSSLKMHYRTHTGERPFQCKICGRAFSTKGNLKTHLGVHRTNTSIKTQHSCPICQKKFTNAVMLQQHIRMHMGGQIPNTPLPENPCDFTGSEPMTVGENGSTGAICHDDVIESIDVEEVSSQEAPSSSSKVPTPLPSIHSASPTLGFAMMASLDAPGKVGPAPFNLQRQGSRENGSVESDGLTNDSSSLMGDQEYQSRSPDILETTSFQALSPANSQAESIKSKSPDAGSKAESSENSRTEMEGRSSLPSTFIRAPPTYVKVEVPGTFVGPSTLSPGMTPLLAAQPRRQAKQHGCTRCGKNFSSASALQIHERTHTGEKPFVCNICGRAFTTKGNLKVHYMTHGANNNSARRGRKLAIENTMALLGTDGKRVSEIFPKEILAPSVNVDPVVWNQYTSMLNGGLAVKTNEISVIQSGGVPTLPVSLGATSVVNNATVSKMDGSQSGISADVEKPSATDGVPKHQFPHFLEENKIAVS
Notes: 8-mer, flanks averaged, mean of replicates
Oligonucleotide | E-score
CGCGATGA | -0.000545
CTACCAAG | -0.059
ACTGTGAT | 0.0799
GGATCGCC | -0.313
ATGAGGAC | 0.016
ATTTACCG | 0.122
CGGGAGAG | -0.187
CGTCGTTC | 0.0261
GCCCCTTA | -0.175
CCGTCTAC | -0.08
ACGCACAG | -0.105
GATACGCC | -0.191
CCTGCGAG | -0.153
CGAAATAA | 0.241
CGTTCATA | 0.208
AGACTGAT | 0.0618
CAAGCTAA | -0.19
CGCCTCGA | -0.179
ACCGAAGA | 0.0766
CTACGAGA | -0.0145
CAGTAAGG | -0.0161
CGGTGAGC | -0.305
AGGCGCCT | -0.217
ACACGAGG | -0.18
GCAAAGCC | -0.25

Block 3 — technique: aptamer microarray, sandwich; molecule type: DNA with 2'F-ANA; matrix: in vitro; concentration: 200 nM; with: Cy3 exosite-II aptamer, 400 nM; direction: higher = stronger binding; oligonucleotide: GGTTGGTGTGGTTGG
Target: Prothrombin, mature alpha-thrombin (F2, Homo sapiens, UniProt P00734)
Notes: whole 15-mer aptamer, many near background
Modification | mean fluorescence intensity [a.u.]
2'F-ANA at 1 3 4 6 10 11 12 13 14 15 | 54.4
2'F-ANA at 1 2 3 4 5 6 8 9 10 11 15 | 47.8
2'F-ANA at 1 3 6 7 12 | 505
2'F-ANA at 2 6 8 9 10 12 13 15 | 139
2'F-ANA at 2 4 7 8 9 10 12 13 14 | 66.8
2'F-ANA at 1 3 4 5 6 8 11 15 | 87.8
2'F-ANA at 3 8 10 11 12 13 15 | 573
2'F-ANA at 2 4 5 6 8 9 10 11 12 13 | 49.6
2'F-ANA at 1 2 3 5 6 9 10 12 | 52.3
2'F-ANA at 2 3 9 13 15 | 583
2'F-ANA at 2 3 6 7 8 10 11 14 | 299
2'F-ANA at 1 2 4 5 6 11 12 13 | 65.6
2'F-ANA at 1 2 4 6 7 10 12 14 | 45.1
2'F-ANA at 4 7 8 13 | 332
2'F-ANA at 2 3 5 6 7 9 12 | 171
2'F-ANA at 2 3 5 7 9 12 14 15 | 61.7
2'F-ANA at 3 5 6 7 10 11 12 13 | 54.7
2'F-ANA at 1 2 4 6 10 11 12 | 54.6

Block 4 — technique: RNA Bind-n-Seq; molecule type: RNA; matrix: in vitro; concentration: 365 nM; relative to: no-protein control; direction: higher = stronger binding
Target: RNA binding protein fox-1 homolog 2, RRM domain, GST-SBP tag (RBFOX2, Homo sapiens, UniProt O43251-10, residues 100-194)
Notes: natural RNA segment, single round, ends assumed
All sequences stand within: GGGAGUUCUACAGUCCGACGAUC … UGGAAUUCUCGGGUGCCAA
Residues (chain): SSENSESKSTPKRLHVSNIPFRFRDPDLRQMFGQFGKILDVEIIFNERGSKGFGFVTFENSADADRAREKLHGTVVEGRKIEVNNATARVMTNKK
Oligonucleotide | RBNS enrichment (R)
CAUACAGGAGCCUCGGUUUUUCAGCAAAACGCGGCCAGUCCCCUUCUCCACUGCUGCCUCCCAGCAGAGGGCCCCAGGAUCUCCAAGGUCCCAGCUAUGGCUUUGGACAA | 0.173
CCAGGAUGGAUAAAUCCACCGAGAUAAGGGUUUUGGUCACUGUCUCCACCUCAGUUCCUCAGGGCUGUUGGCCACCCUAUGACUAACUGGAAGAGGACACGCCAGAGCUU | 0.441
UCCCUUUCUGACUGCCCAAGGGGCUCAGAACCCCAGCAAUCCCUUCCUUUCACUACCUUCUUUUUUGGGGGUAGUUGGAAGGGACUGAAAUUGUGGGGGGAAGGUAGGAG | 0.355
GUUACACUGAUCUAAAGGACAUAUAUAUAACCCUUUAAAAAAAAAAUCACUGCCUCAUUCUUAUUUCAAGAUGAAUUUCUAUACAGACUAGAUGUUUUUCUGAAGAUCAA | 0.467
CAGGGACUUGCUCAUUCUAGGCAAGUGCUCUACCACUGAGCGGGAGUCACCCCUACUUCCUGGAUAGUAGGCUUUUUUAGUUGUGUGUUUUGUUUUGAGACAGUGUCUCA | 1.27
GUCUCUUCCUUUAGCUGACAAGGACACUCCUGAGGUCUUUGUUCUCACUGUAUUCUUUUUAUCCUGGGGCCACAGUUCUUGAUUAUUCCUCUUGUGGUUAAAGACUGAAU | 0.647
CCUACUGGGUUCUCAGGGGGCAGACAGGUCCUGGCCGAAAGUCUUACCAUGGGGAUCGAUAGGGUGGUUAGCCCUGCGCACUAGGUCCAGCCAAUCUGUGCUCUGGGCCU | 0.278
UGGGAACUGAAGUCAGAGGCACGAACACUAACUCUUAGCAUUUUUCUGUAGACUUUUUCUUCUGGCCCUUGUCCCUGCCAGCAAAACGCCCCUUUUCUGAUCAUUCGUGC | 1.2
ACUGAGUCAGGUUUAGGAAGCAAGUUUGGUUGCAUCAAUUAAGCAGGCUCUUUUCAAUUGACUGAUGCUGGGGCCUUCAGUUUUAUUCUCAGUAUAGAUUGCCAGUAUUG | 0.977
UUUCUACUUCCCAUGAAGUAUAUAGGCUUACACUCAUCACCUCGUAAACAAGAACGGGCACAUUUCAGGUGGCUUAUUUUGUGGGGGAGGGUGCUGGAAGGGGUUGGUGG | 0.318
AACUACCAGUACAGAUAGCCCCCGCGGGGCGGAGAUUUCUACCUUCUGCACUUACUCCCCAUCAGAAGAUCGAGUUUUAUGCAUCACAGUUAACAUGUCAGCUGGCCCUC | 1.19
AUGCCACGUGUGCUUCAUGAUGGAACUUUUAGGUCAGUUCCUAUUAAAUGAGCUCUUUUGCAGAUAGCACAUUCAGUAGCCUUAUUUUGUUGAUGGAAUACUGUAUCAUA | 0.454

Block 5 — technique: protein binding microarray; molecule type: double-stranded DNA, one strand shown; matrix: in vitro; concentration: not given; relative to: not given; direction: higher = stronger binding
Target: Histone acetyltransferase KAT6A, winged helix 1, GST fusion (KAT6A, Homo sapiens, UniProt Q92794, residues 1-85)
Notes: 8-mer, flanks averaged, mean of 2 arrays, mostly near background
Residues (chain): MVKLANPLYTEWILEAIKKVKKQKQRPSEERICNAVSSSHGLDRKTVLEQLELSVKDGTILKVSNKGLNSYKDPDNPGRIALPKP
Oligonucleotide | E-score
AATCTACA | -0.155
CAACAGGA | -0.268
AATCCGAC | 0.231
ACTAAAGG | -0.204
ATCTAGAT | -0.262
AAGCACCA | -0.202
ACCGAACG | 0.0828
AGACACTC | -0.215
ACGCCGGG | 0.396
ACAAAGGA | -0.243
GCCGACCC | 0.351
CCGAAGAC | -0.107
ATTTAATA | -0.0583
GGCGGCTA | 0.341
GTCGTCTA | 0.118
AGGTACCC | -0.0955
CTTCATAA | -0.0386
TTCAAGAA | -0.267
GGGTTTAC | 0.0894
CACGCCTC | 0.0639
CTATAAAC | -0.029
ATAGTTAC | -0.00105
ATATTGCC | 0.00629

Block 6 — technique: RNA Bind-n-Seq; molecule type: RNA; matrix: in vitro; concentration: 1 µM; notes: whole 134-nt RNA, ends assumed; with: 150 mM KCl; relative to: input library; direction: higher = stronger binding
Target: Ras GTPase-activating protein-binding protein 1, C-terminal RGG region (G3BP1, Homo sapiens, UniProt Q13283)
UniProt Q13283, sequence (whole entry, looked up): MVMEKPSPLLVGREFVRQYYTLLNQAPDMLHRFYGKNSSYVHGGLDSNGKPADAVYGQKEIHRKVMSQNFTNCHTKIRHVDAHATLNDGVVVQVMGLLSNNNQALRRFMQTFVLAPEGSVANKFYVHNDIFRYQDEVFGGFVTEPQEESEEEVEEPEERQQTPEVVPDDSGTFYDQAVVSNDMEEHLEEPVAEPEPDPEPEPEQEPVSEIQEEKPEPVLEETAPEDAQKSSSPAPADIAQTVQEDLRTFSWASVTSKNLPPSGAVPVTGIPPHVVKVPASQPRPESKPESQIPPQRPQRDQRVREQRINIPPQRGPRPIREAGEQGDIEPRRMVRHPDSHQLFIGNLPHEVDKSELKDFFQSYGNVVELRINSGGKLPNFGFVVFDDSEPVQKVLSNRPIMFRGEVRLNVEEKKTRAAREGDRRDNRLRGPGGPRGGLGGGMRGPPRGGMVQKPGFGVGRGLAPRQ
All sequences stand within: GGGAGUUCUACAGUCCGACGAUC … UGGAAUUCUCGGGUGUCAAGG
Oligonucleotide | log2 enrichment
AGUCCUGUGCUACACAUCGUAUGUACCGAAUCAAACCCAAAUUUUUUUAAACCCAAAAAAGUAUUAUGUUACGCCGUUCGGAUCUGCACU | -1.05
GUCCUGUGCUACACAUCGUAUGUACCGAAUCGGGCCCCGGGGCCCCGGGGCCCCGGGGAAAGUAUUAUGUUACGCCGUUCGGAUCUGCAC | -1.33
UCCUGUGCUACACAUCGUAUGUACCGAAUCGGGGAAAAAGGGGUUUUUUUGGGGAGGGGAAAGUAUUAUGUUACGCCGUUCGGAUCUGCA | 1.68
AGUCCUGUGCUACACAUCGUAUGUACCGAAUCGGGGCCCCGGCCCCGGGGCCCCGGGGAAAGUAUUAUGUUACGCCGUUCGGAUCUGCAC | -2.53
GCAGGAAGUAAAAACAAAUGGAAAUGCUUCGGGUAGUGGCAGGGGUGGGGGUUGCUAAGGAAAGGGUGGGAUGGGAGUGGGUAAAGAGUU | 1.48
AGUCCUGUGCUACACAUCGUAUGUACCGAAUCGGGGAAAAGGGGAAAAGGGGAAAAGGAAAGUAUUAUGUUACGCCGUUCGGAUCUGCAC | -0.667
GUCCUGUGCUACACAUCGUAUGUACCGAAUCGGGGAAAAAGGGGAAAGGGGUUUGGGGAAAGUAUUAUGUUACGCCGUUCGGAUCUGCAC | 2.64
AGUCCUGUGCUACACAUCGUAUGUACCGAAUCGGGAAAAAAAGGGAGGGUUUUUGGGAAAGUAUUAUGUUACGCCGUUCGGAUCUGCACU | 0.833
UAACUUUAGAGGAGGAUCUGAUGGAUAUGGCAGUGGACGUGGAGUUGGGGAUGGCUAUAAUGGGUAUGGAGGAGGACCUGGAGGUGGCAA | -0.816
CAAGUCCUGUGCUACACAUCGUAUGUACCGAAUCGGAAAAAAAGGUGGAAAAAGGAAAGUAUUAUGUUACGCCGUUCGGAUCUGCACUUC | -1.71
GCAGGAAGUAAAAACAAAUGGAAAUGCUUCGGAUAGUGGCAGGGGUGGGGGUUGCUAAGGAAAGGGUGGGAUGGGAGUGGGUAAAGAAUU | 0.937
UGCUUGUGUUUCUGACAGAUUCACUGCCUUCUGAGGACUUGGAUCCUGCCGAUCCCCCGAUCUCGGUAACUGUUGGCCUGAUCUGGCUGU | 0.296
CACAGACAACACGCACCCACACAGACACAGAGGGAAGGGGUUGGGAUGGGGACAGGGUGCACAGCAGGGCGGGGUAGGACCCCAGAAACU | -0.332
CCUCAAGUCCUGUGCUACACAUCGUAUGUACCGAAUCGGAGGUGGAAAAAGGAAAGUAUUAUGUUACGCCGUUCGGAUCUGCACUUCCAG | -0.819

For quick reference, copied from above (block 2):
Oligonucleotide | E-score
CGTTCATA | 0.208
CGGTGAGC | -0.305
GATACGCC | -0.191
GCAAAGCC | -0.25
CTACCAAG | -0.059
CCGTCTAC | -0.08
CGTCGTTC | 0.0261
ATTTACCG | 0.122
GGATCGCC | -0.313
CCTGCGAG | -0.153
ACGCACAG | -0.105
ACCGAAGA | 0.0766
